Experimental data pooled from the literature.
Numbered parts are unrelated; each lists some results of a single study.

Sample 1
Target: Interferon regulatory factor 5, full length, phosphomimetic (IRF5, Homo sapiens, UniProt Q13568-2, residues 1-514, K96S/S451D/S453D/S456D/S462D)
Method: protein-binding microarray
Molecule type: double-stranded DNA, one strand shown
Matrix: in vitro
Concentration: 250 nM
Notes: 60-bp whole probe
With: salmon DNA 0.4 mg/ml
Reference: random background probes
Reading: higher = stronger binding
Constant ends, left off below: GCCTAGCAC … GTCTTGATTCGCTTGACGCTGCTG
Strand | log fluorescence
GACGACTTCAGTTCCGAGACGTGCTAG | 0.0291 z-score
TTAGATCTCGGACTGGGTTAGTGCTAG | -0.204 z-score
CCCCCAATCTCTCTTCACATGTGCTAG | -0.109 z-score
GCCAAAAGTGTAAATGTAAGGTGCTAG | 0.116 z-score
GACGATATCAGTCTCGCGACGTGCTAG | 0.974 z-score
GGTACAAACTTGTAATTATAGTGCTAG | 0.168 z-score
CTGGAATCAATTTATTGACCGTGCTAG | -0.101 z-score
TTAGCTATCGACTTTCGGTTAGTGCTA | 10.1 z-score
TTAGGGCTGGGGACTGGGTTAGTGCTA | -0.908 z-score
TTAGGTATCCTGCTGCTTTAGTGCTAG | -0.288 z-score
TTAGGTCTCGGGCTCGGTTAGTGCTAG | -0.0978 z-score
GACGGACGGGGTATCGGGACGTGCTAG | 0.0765 z-score
GACGCACTGGGGTATCGGGACGTGCTA | 0.0733 z-score
TTAGGCTTCCTACTGCTTTAGTGCTAG | -0.303 z-score
GACCGTTTCCTTCTCCTGACGTGCTAG | 0.626 z-score
TTAGGACTGCGGACTGGGTTAGTGCTA | -0.181 z-score
TTCGATATCGGGACTGGATTAGTGCTA | 2.13 z-score

Sample 2
Target: RING finger protein unkempt homolog, zinc fingers 1-6, GST-SBP tag (UNK, Homo sapiens, UniProt Q9C0B0, residues 30-357)
Method: RNA Bind-n-Seq
Molecule type: RNA
Matrix: in vitro
Concentration: not given
Notes: RNA with constant flanks, human and mouse sites, ends assumed
Reference: input RNA pool
Reading: higher = stronger binding
Residues (chain): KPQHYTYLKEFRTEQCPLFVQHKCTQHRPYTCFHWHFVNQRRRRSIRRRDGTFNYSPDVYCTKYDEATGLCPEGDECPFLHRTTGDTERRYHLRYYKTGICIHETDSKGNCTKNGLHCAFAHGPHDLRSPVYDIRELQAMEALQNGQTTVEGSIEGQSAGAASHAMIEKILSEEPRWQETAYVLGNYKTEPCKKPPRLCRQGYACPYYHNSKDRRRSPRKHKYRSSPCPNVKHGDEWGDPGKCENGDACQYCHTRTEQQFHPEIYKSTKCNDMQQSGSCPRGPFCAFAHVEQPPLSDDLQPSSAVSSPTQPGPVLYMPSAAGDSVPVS
Strand | bound/input enrichment
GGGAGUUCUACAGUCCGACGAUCCAAGGUGGUUUCAGAGAAGUGCGGAAUGAGUAUGGCUCAAGAAUAGGAGGCAAUGAAGGGAUAGAUGUCCCAAUUCCAAGAUUUGCUGUUGGCAUUGUAAUAGGAAGAAAUGGAGAAAUGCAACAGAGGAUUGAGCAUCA | 2.54 ratio
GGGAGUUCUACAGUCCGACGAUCAACACCAACACAGCAAUUGAACUAAAAUUAGUUCGUUUUCCUGAAGAUCUUGAAAAUGACAUUAGAACUUUCUUUCCUGAGUAUACCCAUCAACUCUUUGGGGAUGAUGAAACUGCUUUUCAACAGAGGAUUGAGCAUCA | 0.0978 ratio
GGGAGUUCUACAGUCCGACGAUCUAUCUGGCUAUUUUGGCUAUUUACAACACUAAUUUCAUUAUUUUUAUCUGUAAGCAUUAUUAAUACAUCUUUACCAAAACCUGAGCAAUACAAUAUUUUCUUUAUAUGUUAUAUGCCUUUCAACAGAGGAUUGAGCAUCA | 11.6 ratio
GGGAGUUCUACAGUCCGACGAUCGAGGACCCUUCUUCUCCACAUGCAAGCCCCACACACUCACCCCGGGAAAACGGAAUUGACAAAAACCGUCUGCUGAAGAAAGAUGCUUCAGGUAGCCCGGCAUCCACAGCCUCCUCUGGACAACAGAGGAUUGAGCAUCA | 0.216 ratio
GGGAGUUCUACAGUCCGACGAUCGCUGAAAGAAUGUCUAUUCUACAUCAUGAUCGAGAAGUUCGCAAAGAGAAAAUGCUCAGGCAAAUGGAUAAAAUGAAAAGUCCACGAGUGGCUCUUUCAGCUGCAACACAGAAGUCUCUUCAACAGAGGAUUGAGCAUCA | 0.0993 ratio
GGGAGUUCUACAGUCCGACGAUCGGUUUGAUGCCUGGUCCUUCAAAUGAUUUCAAGUAUGGAUUGAUACCAGGUACUUCAAAUGAUUUCAAGUAUGGAUUGAUACCAGGUGCUUCAAAUGAUUUCAAGUAUGGAUUAUUGCCACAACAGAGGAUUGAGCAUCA | 0.159 ratio
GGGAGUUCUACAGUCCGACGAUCACUCUGUGGGCCACAUCCCCCAGGGUUCUGACACUUCUGCAGUGUGACCAGUGGUGAUGCUAGGUUAUAAUUUCAAACUGUGAAAAAUAAUGGUCUCGUCCUUUACUCAGUGUGGGGUUACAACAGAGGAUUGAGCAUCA | 0.295 ratio
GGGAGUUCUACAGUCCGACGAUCGAUGCCCCCCUGGGAAGUUCUUAUAUGUGCAACAAAGAGCAGACUGUUUCAGUGUCUGGAGCAUUUCAGAUAAAUACCUUUGAUCUAAGGGUUCAGCCUUUCAAUGUGACACAAGGAAAGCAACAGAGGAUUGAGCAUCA | 0.185 ratio
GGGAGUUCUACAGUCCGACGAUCAAGCUUGAAGAAGAUGUAGAUCUUGGCUAUGUGGAAGAUGGGACACCUUGUGGUCCCCAAAUGAUGUGCUUAGAACACAGGUGUCUUCCUGUGGCUUCUUUCAACUUUAGUACUUGCUUGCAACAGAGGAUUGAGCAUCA | 0.283 ratio
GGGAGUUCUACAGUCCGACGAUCGCGAUAUCAAACAGAACUAUCUGGAAGCAUUUACUUCCAAUCCAAAACGGAGCUUUGUCUAGUGCUUGUCACAAAUCCACAUACUCUUCUCUUCCGGAUGACUACAAUUGCCAGGUGGACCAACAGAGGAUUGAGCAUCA | 0.225 ratio
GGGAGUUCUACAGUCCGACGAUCUAUAUUCACUGUCUGCCUGGAAAUAGCCUUGGUUUACCUUAUUUUUUUGUAUAUGUAAAACUAUUCAUAUUUGAUUUUAUUCCAAUAUUAUAUAUGAUGGAAAAGCCAGAAUUGUCUGGCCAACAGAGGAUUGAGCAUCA | 1.83 ratio

Sample 3
Target: RNA binding protein fox-1 homolog 2, RRM domain, GST-SBP tag (RBFOX2, Homo sapiens, UniProt O43251-10, residues 100-194)
Method: RNA Bind-n-Seq
Molecule type: RNA
Matrix: in vitro
Concentration: 365 nM
Notes: natural RNA segment, single round, ends assumed
Reference: no-protein control
Reading: higher = stronger binding
Target sequence (chain): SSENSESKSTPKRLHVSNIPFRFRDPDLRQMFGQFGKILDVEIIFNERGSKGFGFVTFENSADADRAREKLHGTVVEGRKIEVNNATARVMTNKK
Strand | RBNS enrichment (R)
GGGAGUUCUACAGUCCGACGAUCUGAUGUCCCCUUUCCCUGCCACCUCCAGCCUCUGCCAGCAAUGAGCUGUCCCCCUCCCACCCUACACAGUAGCUGGUCAGGGCUGAGUACAGUCCUGGGGGUAAGGGGAUUGGAAUUCUCGGGUGCCAA | 0.273
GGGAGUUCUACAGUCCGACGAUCCACUUGGAAACGGUAUCCUCCCUGCCCAUCCGUCUGUCUGUCGCCCUUCUCCCGGCCCUCACUAAGCCCCGGCACUUCUAGUGGUCUCACCUGGAGGCAAGAGGGAGGGGUGGAAUUCUCGGGUGCCAA | 0.339
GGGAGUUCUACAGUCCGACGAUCGCGCCAUCACAACUUAUUUGUGUGACUAAUUGCCUAGAUUGUAAGCUCUUUGAGGGCAGGGCUUGUCUCUUACACAUCUUUAUAAUCCCCUGCAGCGGCUUUCAGUAUUUUGGAAUUCUCGGGUGCCAA | 0.478
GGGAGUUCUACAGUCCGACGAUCUGACCCAUGUGCGGCAGGGACUCGGCAAAGCUGUGAGGAGCUGAGCUCCGGAGACAGGCACAGCUCUGGCAGAAAGCUCAACGCUAAGGGAUCUCCUUCCCAGUUUCAGCUGGAAUUCUCGGGUGCCAA | 0.239
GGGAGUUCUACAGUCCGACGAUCUCAGAGCUUGUCUCCUUGGCUUCCAACCCCAGAAAUGCCUGCUGGGCCUUAAGCUUUCCAGGGGCCGGGGCAGUGGGGAGCCCCCAUCCCUUCACACCGCCACCAACUAAUGGAAUUCUCGGGUGCCAA | 0.692
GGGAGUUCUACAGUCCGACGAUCUGCUGUCCUCAAAGUAUAUAAUGUUUCUCAUAUGUACCAAGACCAUUUUCACAAUAAACAGAUCUGUUCAUACAUUUUUGUUAUUUUAUAAAUAAAUUACUUAAUUUUAGUGGAAUUCUCGGGUGCCAA | 0.554
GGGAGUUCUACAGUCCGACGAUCGCACCCUGAGCUGGCAGUCCUGGCCGACGCAGUUGACCUCCAGGAGUCCACAGGCAUUGCCUCUGACAGCUCCAGCGACUCUUCUAGCUCCUCUAGUUCCAGCUCGUCAGUGGAAUUCUCGGGUGCCAA | 0.5
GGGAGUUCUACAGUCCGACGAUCCAAGGCCAGCCUGGACGAAUUUGGGGUUGCUCUAUCCUGAGAGUUGUAACCUCAACUUCCAAAGUUUAUAUUUUCUUGAAAUGAUGGAUCUAUUGCUCAACAGUCCCUGUUGGAAUUCUCGGGUGCCAA | 0.39
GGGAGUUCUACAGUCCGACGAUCGCUGGAUGGGAUGGGGCUCCAAGUCUGAGAUUUCAUUGAUACUAGGCAAUAUGGUUUGUAAAAUACAGAAACACUGCCCAAUUGUGAUGUUGUCAAUGGGCUCCUGAUGCUGGAAUUCUCGGGUGCCAA | 0.538

Sample 4
Target: Centromere-binding protein 1, full length, His-tagged (CBF1, Saccharomyces cerevisiae, UniProt P17106, residues 1-351)
Sequence of UniProt P17106 (whole entry, looked up): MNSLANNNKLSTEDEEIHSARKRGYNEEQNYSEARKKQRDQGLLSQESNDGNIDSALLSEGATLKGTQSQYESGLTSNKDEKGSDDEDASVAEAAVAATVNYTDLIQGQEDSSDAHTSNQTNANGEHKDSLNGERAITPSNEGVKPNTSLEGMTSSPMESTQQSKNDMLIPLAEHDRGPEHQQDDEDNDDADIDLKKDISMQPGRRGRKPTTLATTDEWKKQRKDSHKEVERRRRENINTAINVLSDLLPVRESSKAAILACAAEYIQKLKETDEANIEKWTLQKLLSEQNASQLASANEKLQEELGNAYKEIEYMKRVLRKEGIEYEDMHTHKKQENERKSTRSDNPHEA
Method: competition protein-binding microarray
Molecule type: double-stranded DNA, one strand shown
Matrix: in vitro
Concentration: 2 µM
Notes: whole 60-bp probe, lowest competitor level
With: Pho4 competitor, 0.05 µM
Reading: higher = stronger binding
Strand | fluorescence intensity
TCCAGAAGAAGAAACGACGTGCCGAGGTCCATTCCAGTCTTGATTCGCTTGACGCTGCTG | 54.5 a.u.
TTTTTTTGCTACCAACACGTGCCAGTGGTTTAGGTAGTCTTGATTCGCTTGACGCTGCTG | 1730 a.u.
CTAACGAAGGTTTGCAAAGTGGGTGACAAGCCAAGTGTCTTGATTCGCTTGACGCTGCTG | 72 a.u.
CGGGGTTAAGTTTGCAATGTGGGTGGCTTGCAGCAGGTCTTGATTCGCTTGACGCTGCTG | 85.4 a.u.
GTATAAATGTAGTTAAAAGTTTTTGTTTTGATAATTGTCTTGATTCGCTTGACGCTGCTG | 90.6 a.u.
CATACCCAACCTTGTCACATCACTTAAGATATTTGTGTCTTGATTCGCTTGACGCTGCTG | 80.2 a.u.
AAAGCGGTAATTTTTCACGTGACGTCAAATATCTATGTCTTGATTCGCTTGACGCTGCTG | 7590 a.u.
GCTTGTATGCTATACCATGTGATATGTAATAGTACAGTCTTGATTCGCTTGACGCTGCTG | 1240 a.u.
CCAAAGGTAACTTAGCGTGTGATATCACCGGAAGAGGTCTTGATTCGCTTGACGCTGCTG | 82.6 a.u.
TAACGCGATTTACGCTCCGTGCAAAACGATTCTTTGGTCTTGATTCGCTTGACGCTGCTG | 75.2 a.u.
GAATGCAAACCCCATCACGTGAAATAGAGAACAATCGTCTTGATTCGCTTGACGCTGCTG | 2170 a.u.
TTCAGCAAACGGCAGCATGTGAAAAAACCCGTAGAAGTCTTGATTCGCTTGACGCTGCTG | 95.5 a.u.
TACTGCGCCGGGTGATGCGTGACGGGTTTTTGGAAAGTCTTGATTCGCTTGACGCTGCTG | 94.2 a.u.
CTTGTTATTTACGGCCACGGGGACACTATTATGGTTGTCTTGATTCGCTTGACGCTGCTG | 512 a.u.
ACTCGGCTAGGTATCCCCGTGGATTTTTACCCAACAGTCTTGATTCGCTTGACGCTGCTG | 75.9 a.u.
TCACTTTGTCGTCTTCATGTGGGAGTCGGGGCTGTTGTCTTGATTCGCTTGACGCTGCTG | 73 a.u.
TGAACCCTTGATATAAACGTGATGGTTATTATCGGTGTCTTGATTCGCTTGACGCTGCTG | 457 a.u.
TTCTGCAGGGCCCGGCCCGGGTCGTCCGGAAAAAGAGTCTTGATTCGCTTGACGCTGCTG | 42.9 a.u.
GTCTTGTCTCATTGGTCAGTGGGTGTCCCCACTTCAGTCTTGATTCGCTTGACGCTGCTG | 86.9 a.u.
AATAAAACAAGGCGCCATGTGACAGTTTCCAAAAGGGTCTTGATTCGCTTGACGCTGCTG | 691 a.u.
CAGTTCAACCTCACTCGCGTGCGGAGGTGTGAGGTGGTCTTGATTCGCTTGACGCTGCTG | 62.6 a.u.
CTTTCCCGATCTTGTGCAGTGGGTGTAGCACATTTGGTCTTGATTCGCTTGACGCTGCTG | 77.1 a.u.
